Published values gathered from unrelated publications.
Numbered parts are unrelated; each lists some results of a single study.

Set 1
Target: RING finger protein unkempt homolog, zinc fingers 1-6, GST-SBP tag (UNK, Homo sapiens, UniProt Q9C0B0, residues 30-357)
Technique: RNA Bind-n-Seq
Form: RNA
Matrix: in vitro
Tested at: not given
Notes: RNA with constant flanks, human and mouse sites, ends assumed
Reference: input RNA pool
Direction: higher = stronger binding
Quantity: bound/input enrichment
All sequences stand within: GGGAGUUCUACAGUCCGACGAUC … CAACAGAGGAUUGAGCAUCA
Construct (chain): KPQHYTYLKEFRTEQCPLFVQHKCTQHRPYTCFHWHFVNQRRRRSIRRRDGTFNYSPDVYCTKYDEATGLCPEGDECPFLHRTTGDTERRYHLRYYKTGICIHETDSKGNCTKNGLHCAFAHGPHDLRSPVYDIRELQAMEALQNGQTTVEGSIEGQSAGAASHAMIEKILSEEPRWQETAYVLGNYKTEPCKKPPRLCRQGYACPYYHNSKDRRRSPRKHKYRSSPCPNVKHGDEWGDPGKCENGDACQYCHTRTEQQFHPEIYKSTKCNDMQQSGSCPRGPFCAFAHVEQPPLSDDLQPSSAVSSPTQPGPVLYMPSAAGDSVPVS
Strand = ACGCAUCACGGGCACGGGGCGCCAAGGCAUAUUCCCUGCCAGCUACGUGCAGGUGUCUCGUGAACCCCGGCUCCGGCUCUGUGACGACGGCCCCCAGCUCCCCACGUCUCCCCGCCUGAC; result = 0.123 ratio
Strand = GAGGGCAAUGCAGCCACUUCCUAUCAGAAGCAGACUGACAAACCCAGCCACUGUAGCCAGUUUGUGACACCUCCGCGGAUGAGGAGACAGUUCUCAGCACCCAAUCUCAAAGCUGGUCGA; result = 0.0962 ratio
Strand = CAGUACUAUGAUUUGCUCCGUCUGUUUGAAUACGGUGGCUUUCCUCCAGAGAGCAACUAUUUGUUUCUCGGGGACUAUGUGGACAGGGGCAAGCAGUCCCUGGAGACAAUCUGCCUCUUG; result = 0.208 ratio
Strand = GACAAAUGGUGAUAUAUUUCCUUAAAAAAGCUGUUUCUCAACUUUAAUUUUCUUUCAAAACUGAGAAUAUACCCAGAUACUACCCUUAGUUUCACUCACAUGUAUGCUGCAGAACAAGUG; result = 0.266 ratio
Strand = ACUGAGCCAUUUCCUAUUUUAAAUGGCUUCUAUAGAAAAUUAACAACUCAGUUAUUAAACUAGCAGGAUCCUACAAUGAUACAUCUAGUGAAAGUAGACUUAGUUAACUUAUUUAUUUCU; result = 12.4 ratio
Strand = CAGUGGCCCCAUGGAGAGCUUUCUCUGUCUGGGAUUGAACUGAGAUCCUGAGGUUUUCUUUUAGGAAACUAAAGUAAACUUGCCAUUACUAAAUUUGUAAAGUUGAGAUUCACUCCUUAA; result = 0.0696 ratio
Strand = CAGCAGGAAAAAAUUAAGAGAAUACAGCAAAUCAGAAUGGAGAAAGAACUGAGAGCUCAGCAGAUUCUCGAGGCUAAAAAGAAAAAGAAGGAAGAAGCGGCAAAUGCCAAAUUAUUGGAG; result = 0.619 ratio
Strand = AAUGCAUCUCUUCAAGACCAUAUUUAUCCGAGCUGUUUUGGGAAUACUCCAGAGUGGAAUAGUUCUAAAUUUAUAAGUCUUUGGGGAUCAGAAGUGAUGAAUGAUAAGAACUGGAAUCCU; result = 0.16 ratio

Set 2
Target: NUAK family SNF1-like kinase 2 (NUAK2, Homo sapiens, UniProt Q9H093)
Effect on: enzyme activity
Mode: inhibitor
Tested at: 0.5 µM
Reference: control
Quantity: remaining activity
Construct (Q9H093 1-628): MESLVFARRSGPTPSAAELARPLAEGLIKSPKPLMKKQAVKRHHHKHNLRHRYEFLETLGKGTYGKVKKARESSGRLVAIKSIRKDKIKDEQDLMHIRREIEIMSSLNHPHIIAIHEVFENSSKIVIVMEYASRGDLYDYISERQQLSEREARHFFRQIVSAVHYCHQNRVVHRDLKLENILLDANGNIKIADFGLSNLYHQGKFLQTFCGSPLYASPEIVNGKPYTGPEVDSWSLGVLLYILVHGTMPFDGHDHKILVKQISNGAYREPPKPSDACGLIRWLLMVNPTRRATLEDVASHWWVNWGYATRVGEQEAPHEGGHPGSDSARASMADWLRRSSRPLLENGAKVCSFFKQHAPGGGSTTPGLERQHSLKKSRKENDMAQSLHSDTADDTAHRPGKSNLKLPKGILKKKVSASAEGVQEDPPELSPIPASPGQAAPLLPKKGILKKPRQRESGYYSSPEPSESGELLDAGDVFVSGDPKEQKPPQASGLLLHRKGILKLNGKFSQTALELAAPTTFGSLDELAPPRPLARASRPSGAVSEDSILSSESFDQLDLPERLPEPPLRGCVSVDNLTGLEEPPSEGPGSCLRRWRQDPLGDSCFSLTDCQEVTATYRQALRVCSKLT
SMILES = COc1ccc(OC)c2c(=S)c3ccccc3[nH]c12; result = 98.9%
SMILES = Cn1c2ccccc2c2c3c(c4c5ccccc5n(CCC#N)c4c21)CNC3=O; result = 40.5%
SMILES = Cc1ccc(NC(=O)c2ccc(CN3CCN(C)CC3)cc2)cc1Nc1nc(-c2cccnc2)cs1; result = 98.4%
SMILES = CCOC(=O)c1c(C)[nH]c(/C=C2\C(=O)Nc3ccccc32)c1C; result = 128%
SMILES = Cc1cccc(-c2[nH]c(C(C)(C)C)nc2-c2ccc3c(c2)OCO3)n1; result = 138%
SMILES = O=c1c2ccccc2[nH]c(=S)n1CCN1CCC(=C(c2ccc(F)cc2)c2ccc(F)cc2)CC1; result = 106%
SMILES = Nc1[nH]nc2nc3ccccc3nc12; result = 96.3%
SMILES = CNC(=O)c1cc(Oc2ccc(NC(=O)Nc3ccc(Cl)c(C(F)(F)F)c3)cc2)ccn1; result = 101%
SMILES = CC(C)[C@H](CO)Nc1nc(Nc2cc(N)cc(Cl)c2)c2ncn(C(C)C)c2n1; result = 81.4%
SMILES = O=C1NC(=O)C(c2cn(CCCn3ccnc3)c3ccccc23)=C1Nc1ccccc1; result = 113%
SMILES = Cc1ccc(Nc2nccc(N(C)c3ccc4c(C)n(C)nc4c3)n2)cc1S(N)(=O)=O; result = 93.8%
SMILES = CN(C)c1ccc(C=C2C(=O)Nc3ccccc32)cc1; result = 94.3%
SMILES = COc1ccc(CNC(=O)Nc2ncc([N+](=O)[O-])s2)cc1; result = 89.9%
SMILES = O=S(=O)(c1cccc2cnccc12)N1CCCNCC1; result = 83.5%
SMILES = COc1cc2ncnc(Nc3ccc(Oc4ccccc4)cc3)c2cc1OC; result = 137%

Set 3
Target: 5-hydroxytryptamine receptor 1D (HTR1D, Homo sapiens, UniProt P28221)
Chain of UniProt P28221 (whole entry, looked up): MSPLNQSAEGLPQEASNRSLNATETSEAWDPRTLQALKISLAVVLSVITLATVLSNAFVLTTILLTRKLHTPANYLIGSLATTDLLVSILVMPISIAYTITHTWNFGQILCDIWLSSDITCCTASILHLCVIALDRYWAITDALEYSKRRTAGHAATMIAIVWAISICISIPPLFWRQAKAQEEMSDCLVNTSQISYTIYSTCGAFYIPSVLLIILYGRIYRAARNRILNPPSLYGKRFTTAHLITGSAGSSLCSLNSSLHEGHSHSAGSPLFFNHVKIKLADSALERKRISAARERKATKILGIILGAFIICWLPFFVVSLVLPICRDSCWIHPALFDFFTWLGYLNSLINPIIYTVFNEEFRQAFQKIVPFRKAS
Effect on: cell-free assay
Tested at: 10 µM
Quantity: inhibition
Compound = CN1C(=O)[C@@H](N2CCc3c(nn(Cc4ccccc4)c3Br)C2=O)COc2ccccc21; result = -5.06%
Compound = CCOc1ccc(S(=O)(=O)Nc2ccc(Cl)cc2C#Cc2cnc(C(=O)O)cc2OC)c2ncccc12; result = -12.6%
Compound = O=C(Nc1ccc(Oc2ccc(F)cc2)cc1)N1CCc2ncccc2[C@H]1c1ccc(F)cc1; result = 43.3%
Compound = C[C@H](c1ccnc(Nc2nc3ccc(-c4cc(N(C)C)ncn4)cc3[nH]2)c1)N1CCN(C(=O)CC(F)(F)F)CC1; result = 23.2%
Compound = CNC(=O)Nc1ccc2c(c1)CC[C@]21OC(=O)N(CC(=O)N(Cc2ccc(F)cc2)[C@@H](C)C(F)(F)F)C1=O; result = 18%
Compound = CC1=C(C#N)C(c2ccc3[nH]nc(C)c3c2)C(C#N)=C(C)N1; result = -14.9%
Compound = O=C(NCCCC1CCCCC1)c1ccc(CNC(=O)c2cnn(-c3ccccc3)c2C(F)(F)F)cc1; result = -8.35%
Compound = Cc1cc(C)c(-n2ccn3nc(-c4cccnc4)cc23)cc1NC(=O)c1cc(C#N)cc(S(F)(F)(F)(F)F)c1; result = 9.27%
Compound = CN1CCN(C(=O)C(C)(C)c2ccc(C(=O)Nc3cn4cc(-c5cc(C(C)(C)C)cc(C(C)(C)C)c5)ccc4n3)cc2)CC1; result = 50.5%
Compound = CC[C@H](CC(=O)O)n1c(=O)c2ncccc2n(Cc2cn(C)c3cc(C)cc(C)c23)c1=O; result = 52.9%
Compound = CS(=O)(=O)N1CCCC(NC(=O)[C@H](CCC2CCCCC2)NC(=O)c2ccc(CNC(=O)c3cnc4ccccn34)cc2)C1 (stereo partly shown); result = 18.9%
Compound = CN1CCN(c2ccnc(NCCc3ccccc3)n2)CC1; result = 53.2%
Compound = CC(=O)Nc1ncc(CN2CCC[C@H](Cc3cc(C)nc(C)c3)C2)s1; result = 11.6%

Further values, each from its own experiment
Technique: cross-linking MS
Molecule = H2AC11 (Homo sapiens, UniProt P0C0S8); partner = H1-4 (Homo sapiens, UniProt P10412); setting = hits only; quantity = interaction screen; result = cross-linked
Molecule = SNRPC (Homo sapiens, UniProt P09234); partner = SNRPD3 (Homo sapiens, UniProt P62318); system = cell fractions; setting = added: DMTMM; quantity = cross-linked residues; result = K22 to E14
Molecule = PPFIA1 (Homo sapiens, UniProt Q13136); partner = CAPRIN1 (Homo sapiens, UniProt Q14444); system = cell fractions; setting = added: DSSO; quantity = cross-linked residues; result = K213 to K234
Molecule = H2BC21 (Homo sapiens, UniProt Q16778); partner = H2AC6 (Homo sapiens, UniProt Q93077); setting = hits only; quantity = interaction screen; result = cross-linked
